Results of several laboratories.
Each line is one published result; not all experiments were run side by side. Numbers after ± are the reported error.
UniProt P21217, sequence (whole entry, looked up): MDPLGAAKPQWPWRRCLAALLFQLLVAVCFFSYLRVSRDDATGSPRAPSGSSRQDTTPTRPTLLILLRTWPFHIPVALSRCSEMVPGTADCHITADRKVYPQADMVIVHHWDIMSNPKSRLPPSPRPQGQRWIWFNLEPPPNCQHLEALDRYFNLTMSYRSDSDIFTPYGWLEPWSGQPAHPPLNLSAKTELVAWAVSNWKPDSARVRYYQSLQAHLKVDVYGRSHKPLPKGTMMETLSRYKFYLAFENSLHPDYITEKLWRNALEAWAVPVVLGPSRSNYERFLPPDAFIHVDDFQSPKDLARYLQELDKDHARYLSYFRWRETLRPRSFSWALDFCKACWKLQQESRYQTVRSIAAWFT
UniProt Q5S006, sequence (whole entry, looked up): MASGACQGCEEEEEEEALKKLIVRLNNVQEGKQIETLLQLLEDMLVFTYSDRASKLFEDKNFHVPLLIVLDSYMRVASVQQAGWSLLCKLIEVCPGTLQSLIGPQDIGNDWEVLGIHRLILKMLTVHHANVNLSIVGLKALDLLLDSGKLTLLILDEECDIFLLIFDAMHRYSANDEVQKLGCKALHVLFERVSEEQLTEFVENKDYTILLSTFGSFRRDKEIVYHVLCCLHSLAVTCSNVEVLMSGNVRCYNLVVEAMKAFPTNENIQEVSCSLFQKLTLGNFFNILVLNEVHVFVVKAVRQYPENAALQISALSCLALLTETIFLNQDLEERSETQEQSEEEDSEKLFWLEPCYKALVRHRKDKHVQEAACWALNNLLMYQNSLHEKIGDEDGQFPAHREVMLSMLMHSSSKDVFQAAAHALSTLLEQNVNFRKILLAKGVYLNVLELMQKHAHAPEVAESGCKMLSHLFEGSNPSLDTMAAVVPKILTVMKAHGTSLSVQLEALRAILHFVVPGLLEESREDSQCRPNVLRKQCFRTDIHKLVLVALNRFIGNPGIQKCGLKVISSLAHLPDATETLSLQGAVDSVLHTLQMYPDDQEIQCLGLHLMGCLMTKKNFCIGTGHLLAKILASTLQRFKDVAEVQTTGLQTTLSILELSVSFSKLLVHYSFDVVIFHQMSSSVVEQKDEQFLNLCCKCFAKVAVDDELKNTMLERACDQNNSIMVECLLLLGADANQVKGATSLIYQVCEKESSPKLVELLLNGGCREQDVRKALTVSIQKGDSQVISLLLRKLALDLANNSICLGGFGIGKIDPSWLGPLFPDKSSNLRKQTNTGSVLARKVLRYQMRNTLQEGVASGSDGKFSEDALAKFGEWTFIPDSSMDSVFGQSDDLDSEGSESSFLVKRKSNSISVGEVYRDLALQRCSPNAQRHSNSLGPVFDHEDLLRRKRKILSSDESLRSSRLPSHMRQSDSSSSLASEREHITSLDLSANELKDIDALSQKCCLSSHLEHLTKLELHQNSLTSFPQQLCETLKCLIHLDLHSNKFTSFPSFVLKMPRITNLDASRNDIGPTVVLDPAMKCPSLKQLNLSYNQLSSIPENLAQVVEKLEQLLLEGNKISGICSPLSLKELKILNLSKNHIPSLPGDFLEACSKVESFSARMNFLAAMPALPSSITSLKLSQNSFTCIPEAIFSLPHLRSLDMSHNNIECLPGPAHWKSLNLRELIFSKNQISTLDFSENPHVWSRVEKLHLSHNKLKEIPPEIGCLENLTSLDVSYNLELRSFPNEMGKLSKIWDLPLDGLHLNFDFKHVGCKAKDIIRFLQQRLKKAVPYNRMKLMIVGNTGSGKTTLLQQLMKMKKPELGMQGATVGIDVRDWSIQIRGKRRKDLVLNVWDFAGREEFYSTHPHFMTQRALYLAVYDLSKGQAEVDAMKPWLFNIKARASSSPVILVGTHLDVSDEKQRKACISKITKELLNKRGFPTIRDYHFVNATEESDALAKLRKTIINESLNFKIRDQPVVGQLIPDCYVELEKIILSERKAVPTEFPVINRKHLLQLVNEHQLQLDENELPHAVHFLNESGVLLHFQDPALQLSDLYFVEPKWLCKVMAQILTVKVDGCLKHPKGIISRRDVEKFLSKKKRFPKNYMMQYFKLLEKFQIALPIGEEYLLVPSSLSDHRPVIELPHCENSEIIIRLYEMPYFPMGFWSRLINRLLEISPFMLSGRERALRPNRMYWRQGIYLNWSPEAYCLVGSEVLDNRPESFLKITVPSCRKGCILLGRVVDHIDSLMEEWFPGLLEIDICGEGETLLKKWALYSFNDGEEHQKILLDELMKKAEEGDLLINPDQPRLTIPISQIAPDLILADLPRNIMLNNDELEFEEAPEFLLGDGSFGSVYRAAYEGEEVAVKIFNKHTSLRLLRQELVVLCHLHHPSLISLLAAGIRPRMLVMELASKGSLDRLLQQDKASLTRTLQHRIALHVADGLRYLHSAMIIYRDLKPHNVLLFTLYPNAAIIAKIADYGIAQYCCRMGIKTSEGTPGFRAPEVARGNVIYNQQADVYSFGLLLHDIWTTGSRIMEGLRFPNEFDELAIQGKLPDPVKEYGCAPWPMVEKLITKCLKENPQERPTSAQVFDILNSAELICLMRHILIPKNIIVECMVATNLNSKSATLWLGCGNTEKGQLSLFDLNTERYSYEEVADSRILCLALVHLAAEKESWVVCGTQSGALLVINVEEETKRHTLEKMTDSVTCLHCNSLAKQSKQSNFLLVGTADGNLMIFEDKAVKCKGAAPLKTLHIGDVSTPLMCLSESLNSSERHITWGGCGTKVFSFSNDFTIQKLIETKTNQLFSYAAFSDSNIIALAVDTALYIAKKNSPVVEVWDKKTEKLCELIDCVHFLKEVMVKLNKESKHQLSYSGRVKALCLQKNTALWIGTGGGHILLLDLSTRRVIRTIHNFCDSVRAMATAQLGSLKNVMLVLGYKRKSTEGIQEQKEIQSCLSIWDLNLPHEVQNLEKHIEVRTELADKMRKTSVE
UniProt P55212, sequence (whole entry, looked up): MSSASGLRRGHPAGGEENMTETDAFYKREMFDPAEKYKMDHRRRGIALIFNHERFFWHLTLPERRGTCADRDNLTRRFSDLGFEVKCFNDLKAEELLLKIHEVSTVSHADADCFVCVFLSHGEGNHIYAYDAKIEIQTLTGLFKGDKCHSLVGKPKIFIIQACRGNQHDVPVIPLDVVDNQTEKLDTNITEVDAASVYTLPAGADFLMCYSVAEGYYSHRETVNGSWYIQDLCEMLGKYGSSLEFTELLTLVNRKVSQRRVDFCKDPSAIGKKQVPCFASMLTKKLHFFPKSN
UniProt P61823, sequence (whole entry, looked up): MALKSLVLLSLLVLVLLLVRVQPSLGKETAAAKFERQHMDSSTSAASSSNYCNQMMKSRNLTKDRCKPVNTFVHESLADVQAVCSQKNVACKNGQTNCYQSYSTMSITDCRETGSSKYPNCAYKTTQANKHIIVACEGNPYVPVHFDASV
UniProt P54764, sequence (whole entry, looked up): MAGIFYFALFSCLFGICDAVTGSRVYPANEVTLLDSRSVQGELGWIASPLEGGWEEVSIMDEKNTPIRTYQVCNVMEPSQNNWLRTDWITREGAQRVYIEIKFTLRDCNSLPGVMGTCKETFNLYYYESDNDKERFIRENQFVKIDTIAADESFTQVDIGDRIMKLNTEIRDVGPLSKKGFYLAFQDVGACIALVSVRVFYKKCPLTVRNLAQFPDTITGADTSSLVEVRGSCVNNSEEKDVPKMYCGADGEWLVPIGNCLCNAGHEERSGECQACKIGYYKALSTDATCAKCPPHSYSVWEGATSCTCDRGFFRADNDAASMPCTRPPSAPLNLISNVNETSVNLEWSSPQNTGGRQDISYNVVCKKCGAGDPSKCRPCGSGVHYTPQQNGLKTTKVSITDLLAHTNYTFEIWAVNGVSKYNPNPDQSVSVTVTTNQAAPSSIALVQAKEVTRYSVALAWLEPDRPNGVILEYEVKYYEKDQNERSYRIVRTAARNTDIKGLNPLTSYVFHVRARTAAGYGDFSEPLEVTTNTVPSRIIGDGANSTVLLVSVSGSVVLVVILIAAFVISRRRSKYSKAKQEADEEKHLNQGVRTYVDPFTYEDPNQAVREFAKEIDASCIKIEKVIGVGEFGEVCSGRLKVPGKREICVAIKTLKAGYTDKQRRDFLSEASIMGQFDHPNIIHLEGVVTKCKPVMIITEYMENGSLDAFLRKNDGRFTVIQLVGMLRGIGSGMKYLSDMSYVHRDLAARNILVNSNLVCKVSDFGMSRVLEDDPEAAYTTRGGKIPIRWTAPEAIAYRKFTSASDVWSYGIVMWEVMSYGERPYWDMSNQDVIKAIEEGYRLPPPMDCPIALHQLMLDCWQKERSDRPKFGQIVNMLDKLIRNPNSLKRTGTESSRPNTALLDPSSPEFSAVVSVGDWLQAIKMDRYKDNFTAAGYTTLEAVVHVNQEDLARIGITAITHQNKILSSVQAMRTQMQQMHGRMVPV
UniProt P07947, sequence (whole entry, looked up): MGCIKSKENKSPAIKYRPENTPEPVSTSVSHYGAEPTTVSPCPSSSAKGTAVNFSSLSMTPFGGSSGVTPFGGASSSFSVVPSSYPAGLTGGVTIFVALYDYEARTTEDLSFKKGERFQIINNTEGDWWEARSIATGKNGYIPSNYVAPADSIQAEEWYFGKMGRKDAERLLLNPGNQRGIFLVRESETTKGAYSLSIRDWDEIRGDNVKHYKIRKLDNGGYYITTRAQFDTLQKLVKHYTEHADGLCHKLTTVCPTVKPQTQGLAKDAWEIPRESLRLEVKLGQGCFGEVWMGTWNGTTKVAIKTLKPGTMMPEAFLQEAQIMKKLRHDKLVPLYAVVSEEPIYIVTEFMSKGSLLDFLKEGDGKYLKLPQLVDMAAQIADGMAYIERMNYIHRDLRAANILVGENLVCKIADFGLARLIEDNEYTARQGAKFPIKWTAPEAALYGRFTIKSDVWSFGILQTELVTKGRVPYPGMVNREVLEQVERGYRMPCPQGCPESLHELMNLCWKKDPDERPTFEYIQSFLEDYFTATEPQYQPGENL

SMILES | tested on | test | test system | setting | how to read | measurement | result
N=C(N)NCCC[C@@H]1NC(=O)[C@H](CCCCNC(=O)CNC(=O)CNC(=O)CNC(=O)CC[C@H](NC(=O)CNC(=O)CNC(=O)CNC(=O)CN2CCN(CC(=O)O)CCN(CC(=O)O)CCN(CC(=O)O)CC2)C(=O)NCC(=O)NCC(=O)NCC(=O)NCCCC[C@@H]2NC(=O)[C@@H](Cc3ccccc3)NC(=O)[C@H](CC(=O)O)NC(=O)CNC(=O)[C@H](CCCNC(=N)N)NC2=O)NC(=O)[C@@H](Cc2ccccc2)NC(=O)[C@H](CC(=O)O)NC(=O)CNC1=O [indium-111 labelled] |  |  | female athymic nu/nu mice, U87MG tumour | intravenous, 111 kBq, 72 h |  | tissue uptake | 1.99 ± 0.39 %ID/g
CC[C@H](C)[C@H](NC(=O)[C@H](CCC(N)=O)NC(=O)[C@H](CCCNC(=N)N)NC(=O)[C@H](CC(C)C)NC(=O)[C@@H](NC(=O)[C@H](CCCCN)NC(=O)[C@H](Cc1ccc(O)cc1)NC(=O)[C@H](CCCCN)NC(=O)[C@H](CC(=O)O)NC(=O)[C@H](CCCNC(=N)N)NC(=O)CNC(=O)[C@H](CC(C)C)NC(=O)[C@@H](N)CCCNC(=N)N)[C@@H](C)O)C(=O)N[C@@H](CCCNC(=N)N)C(=O)N[C@@H](CCC(N)=O)C(=O)O | Leucine-rich repeat serine/threonine-protein kinase 2 (Lrrk2, Mus musculus, UniProt Q5S006) | enzyme activity, inhibitor, TR-FRET |  | Ki,ea, together with: ATP varied, PLK-peptide substrate |  | Ki | 650 ± 60 µM
CC(=O)N[C@@H](C)C(=O)N[C@@H](CC(=O)O)C(=O)N[C@@H](CCCNC(=N)N)C(=O)N[C@H](C(=O)N[C@H](C=O)CC(=O)O)[C@@H](C)O | Caspase-6 (CASP6, Homo sapiens, UniProt P55212) | enzyme activity, inhibitor, fluorescence |  | pH 7 |  | Ki | > 100 µM
Nc1nc2c(ncn2[C@@H]2O[C@H](COP(=O)(O)OP(=O)(O)O[C@H]3O[C@@H](CNC(=O)C(c4ccccc4)c4ccccc4)[C@@H](O)[C@@H](O)[C@@H]3F)[C@@H](O)[C@H]2O)c(=O)[nH]1 | FUT3 (Homo sapiens, UniProt P21217) | enzyme activity, inhibitor |  |  |  | Ki | 1.3 µM
Cc1cc(O)c(C=O)c2c1C(=O)Oc1c(CO)c(O)c3c(c1O2)C(O)OC3=O (stereo not drawn) |  |  | streptozotocin-diabetic male albino rats, serum | dose not given, 9 weeks | relative to: diabetic control | FSH level | increased
C=CC(=O)Nc1cc(Nc2nccc(-c3cn(C)c4ccccc34)n2)c(OCC(F)(F)F)nc1N(C)CCN(C)C | Cytochrome P450 2C9 (CYP2C9, Homo sapiens, UniProt P11712) | enzyme activity, inhibitor | human, liver microsomes | 1 µM |  | activity vs control | 108%
COc1cccc(/C=C/C(=O)c2ccccc2)c1 | cathepsin H (Capra hircus, UniProt A0A452G5L2) | competitive inhibitor, Lineweaver-Burk plot | goat liver enzyme | pH 7.0, together with: Leu-βNA substrate |  | Ki | 110 ± 0.07 µM
COC(=O)c1cnc(-c2cnccn2)cc1C(=O)OC.COC(=O)c1cnc(-c2cnccn2)cc1C(=O)OC.O.O.O.O=S(=O)([O-])C(F)(F)F.O=S(=O)([O-])C(F)(F)F.[Cu+2] | calf thymus DNA | ethidium bromide displacement |  | pH 7.4 |  | Stern-Volmer constant | 263 ± 1 M⁻¹
CNC(=O)c1cc(C)ccc1NC(=O)c1ccc(-c2c(C)ccc3[nH]ncc23)c(C)c1 | Ephrin type-A receptor 4 (EPHA4, Homo sapiens, UniProt P54764) | enzyme activity, inhibitor |  |  |  | Ki | 0.0055 µM
CC(OCCCCCN1C[C@H](O)[C@@H](O)[C@H](O)[C@H]1CO)C(C)(C)C (stereo partly drawn) | Beta-glucosidase (GBA2, Homo sapiens, UniProt Q9HCG7) | enzyme activity, inhibitor | HEK293T overexpressing homogenate | together with: 4MU-β-D-glucopyranoside |  | Ki | 0.0059 µM
CNC(=O)C1CCN(c2cc(C)c(F)cc2NC(=O)c2ccc(-c3cc(O)ccc3C)c(C)c2)CC1 | Tyrosine-protein kinase Yes (YES1, Homo sapiens, UniProt P07947) | cell-free assay, TR-FRET |  |  |  | Ki | 0.002 µM
CS(=O)(=O)NS(=O)(=O)CCCCCCS(=O)(=O)NS(=O)(=O)CCCCCCS(=O)(=O)NS(=O)(=O)CCCCCCS(=O)(=O)NS(C)(=O)=O | Ribonuclease pancreatic (RNASE1, Bos taurus, UniProt P61823) | enzyme activity, inhibitor, fluorescence |  |  |  | Ki | ~10000 µM

A few entries again:
SMILES | tested on | test | test system | setting | how to read | measurement | result
CC(OCCCCCN1C[C@H](O)[C@@H](O)[C@H](O)[C@H]1CO)C(C)(C)C (stereo partly drawn) | Beta-glucosidase (GBA2, Homo sapiens, UniProt Q9HCG7) | enzyme activity, inhibitor | HEK293T overexpressing homogenate | together with: 4MU-β-D-glucopyranoside |  | Ki | 0.0059 µM
